Measured values from different studies.
Every numbered part comes from another study and shows a few of its results, in no order.
Sequence of UniProt P42685 (whole entry, looked up): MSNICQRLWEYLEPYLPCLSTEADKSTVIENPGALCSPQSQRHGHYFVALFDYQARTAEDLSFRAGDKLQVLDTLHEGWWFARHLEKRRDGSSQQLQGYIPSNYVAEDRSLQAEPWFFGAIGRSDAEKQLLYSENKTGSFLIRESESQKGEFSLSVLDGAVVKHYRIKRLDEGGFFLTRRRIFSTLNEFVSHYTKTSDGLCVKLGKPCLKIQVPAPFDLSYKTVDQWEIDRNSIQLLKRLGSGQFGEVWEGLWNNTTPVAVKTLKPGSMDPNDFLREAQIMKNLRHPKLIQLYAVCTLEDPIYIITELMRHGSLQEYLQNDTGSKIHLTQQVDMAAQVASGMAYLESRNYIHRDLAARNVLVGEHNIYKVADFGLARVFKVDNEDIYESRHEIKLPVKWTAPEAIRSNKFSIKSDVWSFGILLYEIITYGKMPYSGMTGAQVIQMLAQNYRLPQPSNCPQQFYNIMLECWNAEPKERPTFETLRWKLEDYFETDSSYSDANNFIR
Sequence of UniProt P49841 (whole entry, looked up): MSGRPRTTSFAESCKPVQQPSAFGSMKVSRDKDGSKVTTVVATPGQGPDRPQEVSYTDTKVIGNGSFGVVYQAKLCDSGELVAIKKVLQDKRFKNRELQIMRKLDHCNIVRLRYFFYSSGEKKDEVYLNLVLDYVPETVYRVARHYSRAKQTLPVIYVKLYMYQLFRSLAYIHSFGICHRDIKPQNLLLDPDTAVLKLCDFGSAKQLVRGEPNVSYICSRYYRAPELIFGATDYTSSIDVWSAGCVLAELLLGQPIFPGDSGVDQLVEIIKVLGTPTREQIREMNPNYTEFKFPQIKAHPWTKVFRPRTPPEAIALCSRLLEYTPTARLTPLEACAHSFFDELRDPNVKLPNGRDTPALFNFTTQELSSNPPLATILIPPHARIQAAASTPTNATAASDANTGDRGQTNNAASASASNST
Sequence of UniProt P29320 (whole entry, looked up): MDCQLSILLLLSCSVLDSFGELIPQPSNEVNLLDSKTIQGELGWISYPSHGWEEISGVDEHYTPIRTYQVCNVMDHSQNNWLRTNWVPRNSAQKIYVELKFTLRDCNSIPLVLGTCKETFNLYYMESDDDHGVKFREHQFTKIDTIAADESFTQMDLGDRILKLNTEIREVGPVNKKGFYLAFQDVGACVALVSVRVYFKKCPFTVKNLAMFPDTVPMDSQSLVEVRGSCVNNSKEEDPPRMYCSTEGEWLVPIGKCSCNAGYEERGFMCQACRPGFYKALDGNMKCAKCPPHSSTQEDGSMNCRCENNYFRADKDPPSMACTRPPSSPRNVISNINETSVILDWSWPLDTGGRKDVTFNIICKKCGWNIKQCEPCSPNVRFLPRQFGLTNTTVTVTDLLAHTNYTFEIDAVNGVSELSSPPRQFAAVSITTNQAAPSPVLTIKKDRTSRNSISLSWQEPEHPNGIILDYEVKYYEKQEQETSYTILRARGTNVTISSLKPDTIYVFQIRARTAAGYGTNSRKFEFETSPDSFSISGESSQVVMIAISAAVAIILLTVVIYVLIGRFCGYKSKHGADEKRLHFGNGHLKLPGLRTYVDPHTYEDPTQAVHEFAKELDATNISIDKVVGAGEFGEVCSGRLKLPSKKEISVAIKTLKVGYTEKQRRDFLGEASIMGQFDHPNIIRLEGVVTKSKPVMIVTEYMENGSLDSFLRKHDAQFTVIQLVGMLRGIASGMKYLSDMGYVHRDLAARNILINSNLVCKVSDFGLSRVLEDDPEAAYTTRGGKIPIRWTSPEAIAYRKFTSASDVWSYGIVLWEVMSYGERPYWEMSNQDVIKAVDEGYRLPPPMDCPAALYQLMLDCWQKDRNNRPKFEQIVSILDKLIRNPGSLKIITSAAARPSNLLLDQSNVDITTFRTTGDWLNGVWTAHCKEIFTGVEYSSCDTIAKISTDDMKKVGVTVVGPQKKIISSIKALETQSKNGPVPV
Sequence of UniProt O75582 (whole entry, looked up): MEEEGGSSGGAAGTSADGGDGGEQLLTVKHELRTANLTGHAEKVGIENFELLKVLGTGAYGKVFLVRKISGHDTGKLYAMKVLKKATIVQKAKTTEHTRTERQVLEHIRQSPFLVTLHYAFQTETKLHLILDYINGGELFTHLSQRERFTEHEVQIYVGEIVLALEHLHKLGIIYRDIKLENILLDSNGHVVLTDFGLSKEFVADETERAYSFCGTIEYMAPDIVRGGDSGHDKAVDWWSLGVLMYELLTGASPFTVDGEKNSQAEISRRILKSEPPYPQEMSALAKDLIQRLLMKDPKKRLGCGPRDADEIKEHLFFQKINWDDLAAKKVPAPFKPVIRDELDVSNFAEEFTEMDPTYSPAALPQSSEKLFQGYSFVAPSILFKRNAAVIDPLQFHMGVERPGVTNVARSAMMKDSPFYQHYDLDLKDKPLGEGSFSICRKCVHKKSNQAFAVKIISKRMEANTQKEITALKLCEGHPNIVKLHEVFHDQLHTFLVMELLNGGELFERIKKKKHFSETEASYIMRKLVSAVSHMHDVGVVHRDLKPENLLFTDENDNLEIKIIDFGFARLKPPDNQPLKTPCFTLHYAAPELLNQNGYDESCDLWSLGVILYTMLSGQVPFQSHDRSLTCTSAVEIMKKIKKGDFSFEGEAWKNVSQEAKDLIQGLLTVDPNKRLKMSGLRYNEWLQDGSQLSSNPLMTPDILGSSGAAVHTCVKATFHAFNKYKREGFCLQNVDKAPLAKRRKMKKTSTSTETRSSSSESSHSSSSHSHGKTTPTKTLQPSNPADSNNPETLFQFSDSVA
Sequence of UniProt Q8IYT8 (whole entry, looked up): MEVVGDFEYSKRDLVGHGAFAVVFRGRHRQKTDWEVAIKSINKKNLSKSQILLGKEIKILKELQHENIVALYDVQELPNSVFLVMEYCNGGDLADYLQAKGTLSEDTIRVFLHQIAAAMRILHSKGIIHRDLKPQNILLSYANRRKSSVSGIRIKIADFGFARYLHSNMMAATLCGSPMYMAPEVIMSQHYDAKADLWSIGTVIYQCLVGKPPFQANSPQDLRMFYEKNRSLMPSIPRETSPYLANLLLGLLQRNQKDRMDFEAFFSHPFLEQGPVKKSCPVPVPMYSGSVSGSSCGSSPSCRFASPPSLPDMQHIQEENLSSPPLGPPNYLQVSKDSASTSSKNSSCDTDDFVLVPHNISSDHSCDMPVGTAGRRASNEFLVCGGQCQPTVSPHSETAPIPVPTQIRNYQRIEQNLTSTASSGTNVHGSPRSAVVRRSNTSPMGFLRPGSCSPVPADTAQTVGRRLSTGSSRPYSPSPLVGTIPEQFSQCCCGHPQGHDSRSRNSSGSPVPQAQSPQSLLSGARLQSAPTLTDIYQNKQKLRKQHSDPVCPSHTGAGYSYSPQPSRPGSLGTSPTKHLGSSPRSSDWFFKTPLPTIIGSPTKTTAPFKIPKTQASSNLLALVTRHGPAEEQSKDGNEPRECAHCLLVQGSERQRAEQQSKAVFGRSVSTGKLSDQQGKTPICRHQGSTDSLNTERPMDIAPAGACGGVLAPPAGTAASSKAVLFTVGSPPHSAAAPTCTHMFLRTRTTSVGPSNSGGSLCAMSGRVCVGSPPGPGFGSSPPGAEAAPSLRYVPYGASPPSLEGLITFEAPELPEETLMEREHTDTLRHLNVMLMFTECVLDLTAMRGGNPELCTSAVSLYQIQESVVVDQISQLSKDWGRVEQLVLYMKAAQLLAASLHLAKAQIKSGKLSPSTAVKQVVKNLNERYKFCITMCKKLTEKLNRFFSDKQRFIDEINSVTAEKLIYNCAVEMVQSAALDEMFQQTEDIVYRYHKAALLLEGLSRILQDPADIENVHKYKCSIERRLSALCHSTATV
Sequence of UniProt P27361 (whole entry, looked up): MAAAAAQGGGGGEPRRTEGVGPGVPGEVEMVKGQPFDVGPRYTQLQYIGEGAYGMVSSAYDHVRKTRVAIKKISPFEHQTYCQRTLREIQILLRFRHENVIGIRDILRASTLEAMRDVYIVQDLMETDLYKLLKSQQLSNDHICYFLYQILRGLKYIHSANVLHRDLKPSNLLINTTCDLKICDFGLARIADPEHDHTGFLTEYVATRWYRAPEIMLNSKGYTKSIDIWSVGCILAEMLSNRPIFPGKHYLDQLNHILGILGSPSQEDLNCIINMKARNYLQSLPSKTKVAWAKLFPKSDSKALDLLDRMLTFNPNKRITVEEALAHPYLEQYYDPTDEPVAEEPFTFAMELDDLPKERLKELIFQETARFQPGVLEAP
Sequence of UniProt P22607 (whole entry, looked up): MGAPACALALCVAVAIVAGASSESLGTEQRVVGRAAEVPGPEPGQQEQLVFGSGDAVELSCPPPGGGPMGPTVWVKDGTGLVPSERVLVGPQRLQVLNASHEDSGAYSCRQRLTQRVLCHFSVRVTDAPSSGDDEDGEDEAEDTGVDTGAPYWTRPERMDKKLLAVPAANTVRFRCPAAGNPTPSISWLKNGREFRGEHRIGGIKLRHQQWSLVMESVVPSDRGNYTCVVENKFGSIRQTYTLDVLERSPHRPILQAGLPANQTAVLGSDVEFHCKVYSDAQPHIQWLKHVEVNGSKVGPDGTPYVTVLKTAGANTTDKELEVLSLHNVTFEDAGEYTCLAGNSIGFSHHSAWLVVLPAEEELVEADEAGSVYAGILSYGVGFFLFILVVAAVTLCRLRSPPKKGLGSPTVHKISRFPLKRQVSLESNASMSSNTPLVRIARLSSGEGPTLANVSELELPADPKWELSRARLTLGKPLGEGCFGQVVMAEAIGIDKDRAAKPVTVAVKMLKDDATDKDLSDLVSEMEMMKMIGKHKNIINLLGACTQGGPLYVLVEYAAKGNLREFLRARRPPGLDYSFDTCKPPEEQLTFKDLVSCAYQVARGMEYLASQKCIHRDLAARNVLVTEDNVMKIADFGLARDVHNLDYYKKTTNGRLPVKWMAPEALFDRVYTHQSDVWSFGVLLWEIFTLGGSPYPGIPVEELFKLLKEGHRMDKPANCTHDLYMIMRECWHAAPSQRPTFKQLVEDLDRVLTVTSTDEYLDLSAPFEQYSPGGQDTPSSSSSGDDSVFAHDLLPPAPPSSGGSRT

Sample 1 — observed: enzyme activity; mode: inhibitor; tested at: 0.5 µM; relative to: control
Structure (SMILES): O=C(Nc1cccc(Nc2nccc(Nc3cccc(C(F)(F)F)c3)n2)c1)C1CC1
target	remaining activity [%]
Casein kinase I isoform gamma-2 (CSNK1G2, Homo sapiens, UniProt P78368)	101
Fibroblast growth factor receptor 3 (FGFR3, Homo sapiens, UniProt P22607)	95
Mitogen-activated protein kinase kinase kinase 14 (MAP3K14, Homo sapiens, UniProt Q99558)	109
Fibroblast growth factor receptor 1 (FGFR1, Homo sapiens, UniProt P11362)	99.6
Tyrosine-protein kinase FRK (FRK, Homo sapiens, UniProt P42685)	92.2
Angiopoietin-1 receptor (TEK, Homo sapiens, UniProt Q02763)	101
Ephrin type-A receptor 3 (EPHA3, Homo sapiens, UniProt P29320)	105
Serine/threonine-protein kinase ULK2 (ULK2, Homo sapiens, UniProt Q8IYT8)	107
Dual specificity mitogen-activated protein kinase kinase 2 (MAP2K2, Homo sapiens, UniProt P36507)	89.2
Mitogen-activated protein kinase 3 (MAPK3, Homo sapiens, UniProt P27361)	98.2
Glycogen synthase kinase-3 beta (GSK3B, Homo sapiens, UniProt P49841)	101

Sample 2 — method: aptamer microarray, sandwich; molecule type: DNA with 2'F-ANA; sample: in vitro; tested at: 200 nM; with: Cy3 exosite-II aptamer, 400 nM; reading: higher = stronger binding; oligonucleotide: GGTTGGTGTGGTTGG
Target: Prothrombin, mature alpha-thrombin (F2, Homo sapiens, UniProt P00734)
Notes: whole 15-mer aptamer, many near background
Modification	mean fluorescence intensity
2'F-ANA at 3 4 7 8	859 a.u.
2'F-ANA at 1 2 3 5 6 7 9 11 12 13 14	45.3 a.u.
2'F-ANA at 1 3 4 7 10 11 12 14 15	53.1 a.u.
2'F-ANA at 6 8 10 11 12 14 15	97.7 a.u.
2'F-ANA at 1 2 3 5 6 10 12 15	54.2 a.u.
2'F-ANA at 1 2 3 4 6 7 11 14	58.2 a.u.
2'F-ANA at 2 4 7 8 11 12 13	563 a.u.
2'F-ANA at 1 2 3 4 6 7 11 12 15	243 a.u.

Sample 3 — observed: cell-free assay; method: competition with immobilised ligand; tested at: 0.1 µM
SMILES: C[C@H](c1ccnc(Nc2nc3ccc(-c4cc(N(C)C)ncn4)cc3[nH]2)c1)N1CCN(C(=O)CC(F)(F)F)CC1
target	remaining binding
Myosin light chain kinase (MYLK3, Homo sapiens, UniProt Q32MK0)	100%
Serine/threonine-protein kinase SBK1 (SBK1, Homo sapiens, UniProt Q52WX2)	85%
Serine/threonine-protein kinase WNK1 (WNK1, Homo sapiens, UniProt Q9H4A3)	100%
Ribosomal protein S6 kinase alpha-5, N-terminal kinase domain (RPS6KA5, Homo sapiens, UniProt O75582)	88%
Tyrosine-protein kinase BTK (BTK, Homo sapiens, UniProt Q06187)	100%
Tyrosine-protein kinase FRK (FRK, Homo sapiens, UniProt P42685)	92%
Tyrosine-protein kinase Yes (YES1, Homo sapiens, UniProt P07947)	92%
RAC-beta serine/threonine-protein kinase (AKT2, Homo sapiens, UniProt P31751)	100%
Ribosomal protein S6 kinase alpha-2, N-terminal kinase domain (RPS6KA2, Homo sapiens, UniProt Q15349)	98%

Sample 4 — Substance: RNF167 RING domain (UniProt Q9H6Y7); method: yeast two-hybrid; sample: yeast; notes: mostly zero background; relative to: not given; reading: higher = stronger interaction
target	lacZ reporter activity
UBE2E1 UBC core domain (UniProt P51965)	12300
UBE2E2 UBC core domain (UniProt Q96LR5)	0
UBE2V2 UBC core domain (UniProt Q15819)	0
UBE2Q2 UBC core domain (UniProt Q8WVN8)	0
CDC34 UBC core domain (UniProt P49427)	0
UBE2N UBC core domain (UniProt P61088)	9370

Excerpt of the above (sample 3):
target	remaining binding
RAC-beta serine/threonine-protein kinase (AKT2, Homo sapiens, UniProt P31751)	100%
Ribosomal protein S6 kinase alpha-2, N-terminal kinase domain (RPS6KA2, Homo sapiens, UniProt Q15349)	98%
